Experimental data collected from several papers.
A part holds a random share of what one study measured. Several values in a cell are separate wells, animals, samples, runs or records.
UniProt Q12866, sequence (whole entry, looked up): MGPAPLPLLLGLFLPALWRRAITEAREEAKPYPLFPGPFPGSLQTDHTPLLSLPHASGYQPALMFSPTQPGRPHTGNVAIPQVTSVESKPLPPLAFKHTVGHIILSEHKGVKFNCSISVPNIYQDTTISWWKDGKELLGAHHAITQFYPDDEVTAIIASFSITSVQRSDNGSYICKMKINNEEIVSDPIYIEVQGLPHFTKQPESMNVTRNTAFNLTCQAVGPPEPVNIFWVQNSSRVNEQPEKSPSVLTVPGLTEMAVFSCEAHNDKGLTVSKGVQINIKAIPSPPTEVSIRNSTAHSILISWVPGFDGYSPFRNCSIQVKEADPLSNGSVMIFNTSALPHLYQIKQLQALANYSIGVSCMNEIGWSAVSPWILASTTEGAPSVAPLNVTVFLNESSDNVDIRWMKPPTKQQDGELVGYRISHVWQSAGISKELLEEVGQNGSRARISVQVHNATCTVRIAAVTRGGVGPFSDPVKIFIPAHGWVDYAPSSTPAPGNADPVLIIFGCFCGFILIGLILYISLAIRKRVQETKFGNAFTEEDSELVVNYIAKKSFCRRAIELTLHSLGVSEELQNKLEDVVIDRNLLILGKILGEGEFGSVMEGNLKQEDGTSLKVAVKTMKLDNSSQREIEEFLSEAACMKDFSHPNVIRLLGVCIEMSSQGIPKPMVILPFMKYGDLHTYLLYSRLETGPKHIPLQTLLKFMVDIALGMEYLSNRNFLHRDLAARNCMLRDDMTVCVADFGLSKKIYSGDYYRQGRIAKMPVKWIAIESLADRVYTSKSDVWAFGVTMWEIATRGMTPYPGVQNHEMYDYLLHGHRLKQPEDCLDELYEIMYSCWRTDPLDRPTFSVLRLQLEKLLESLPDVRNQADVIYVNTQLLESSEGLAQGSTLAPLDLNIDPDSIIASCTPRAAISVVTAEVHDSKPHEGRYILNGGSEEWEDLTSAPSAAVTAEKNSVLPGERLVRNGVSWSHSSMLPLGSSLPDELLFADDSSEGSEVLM
UniProt Q15349, sequence (whole entry, looked up): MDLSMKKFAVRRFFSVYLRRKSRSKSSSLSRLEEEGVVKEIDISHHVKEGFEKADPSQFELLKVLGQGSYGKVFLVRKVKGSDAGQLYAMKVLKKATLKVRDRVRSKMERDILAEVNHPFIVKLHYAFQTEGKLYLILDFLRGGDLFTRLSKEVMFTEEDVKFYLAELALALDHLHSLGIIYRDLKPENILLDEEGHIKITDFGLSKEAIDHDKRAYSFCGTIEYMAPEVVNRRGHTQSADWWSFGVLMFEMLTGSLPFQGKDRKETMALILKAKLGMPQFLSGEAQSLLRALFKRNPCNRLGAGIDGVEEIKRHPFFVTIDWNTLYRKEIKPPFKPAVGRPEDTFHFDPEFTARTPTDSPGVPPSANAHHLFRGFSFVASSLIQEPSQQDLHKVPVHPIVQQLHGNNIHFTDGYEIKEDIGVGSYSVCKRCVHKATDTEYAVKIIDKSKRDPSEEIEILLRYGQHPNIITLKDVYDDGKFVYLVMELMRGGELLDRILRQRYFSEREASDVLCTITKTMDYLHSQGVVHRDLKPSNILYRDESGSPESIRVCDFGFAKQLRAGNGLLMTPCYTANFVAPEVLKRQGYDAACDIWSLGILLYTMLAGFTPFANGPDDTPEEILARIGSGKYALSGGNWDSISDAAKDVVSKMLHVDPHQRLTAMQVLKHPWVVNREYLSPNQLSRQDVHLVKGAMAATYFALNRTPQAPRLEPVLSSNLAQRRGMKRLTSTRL
UniProt Q9Y6M4, sequence (whole entry, looked up): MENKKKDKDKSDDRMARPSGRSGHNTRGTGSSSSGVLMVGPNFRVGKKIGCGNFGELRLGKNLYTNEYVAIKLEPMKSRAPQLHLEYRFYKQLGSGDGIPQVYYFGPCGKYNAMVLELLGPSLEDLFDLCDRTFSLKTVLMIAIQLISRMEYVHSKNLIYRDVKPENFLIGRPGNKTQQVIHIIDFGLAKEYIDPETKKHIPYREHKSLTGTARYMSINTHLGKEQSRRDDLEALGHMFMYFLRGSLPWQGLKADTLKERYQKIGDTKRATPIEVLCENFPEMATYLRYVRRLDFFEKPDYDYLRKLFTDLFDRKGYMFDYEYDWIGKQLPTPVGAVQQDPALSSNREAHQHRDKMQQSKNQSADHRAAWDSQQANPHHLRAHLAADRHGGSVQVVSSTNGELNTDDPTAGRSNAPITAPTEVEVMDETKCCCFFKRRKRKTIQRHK
UniProt P42684, sequence (whole entry, looked up): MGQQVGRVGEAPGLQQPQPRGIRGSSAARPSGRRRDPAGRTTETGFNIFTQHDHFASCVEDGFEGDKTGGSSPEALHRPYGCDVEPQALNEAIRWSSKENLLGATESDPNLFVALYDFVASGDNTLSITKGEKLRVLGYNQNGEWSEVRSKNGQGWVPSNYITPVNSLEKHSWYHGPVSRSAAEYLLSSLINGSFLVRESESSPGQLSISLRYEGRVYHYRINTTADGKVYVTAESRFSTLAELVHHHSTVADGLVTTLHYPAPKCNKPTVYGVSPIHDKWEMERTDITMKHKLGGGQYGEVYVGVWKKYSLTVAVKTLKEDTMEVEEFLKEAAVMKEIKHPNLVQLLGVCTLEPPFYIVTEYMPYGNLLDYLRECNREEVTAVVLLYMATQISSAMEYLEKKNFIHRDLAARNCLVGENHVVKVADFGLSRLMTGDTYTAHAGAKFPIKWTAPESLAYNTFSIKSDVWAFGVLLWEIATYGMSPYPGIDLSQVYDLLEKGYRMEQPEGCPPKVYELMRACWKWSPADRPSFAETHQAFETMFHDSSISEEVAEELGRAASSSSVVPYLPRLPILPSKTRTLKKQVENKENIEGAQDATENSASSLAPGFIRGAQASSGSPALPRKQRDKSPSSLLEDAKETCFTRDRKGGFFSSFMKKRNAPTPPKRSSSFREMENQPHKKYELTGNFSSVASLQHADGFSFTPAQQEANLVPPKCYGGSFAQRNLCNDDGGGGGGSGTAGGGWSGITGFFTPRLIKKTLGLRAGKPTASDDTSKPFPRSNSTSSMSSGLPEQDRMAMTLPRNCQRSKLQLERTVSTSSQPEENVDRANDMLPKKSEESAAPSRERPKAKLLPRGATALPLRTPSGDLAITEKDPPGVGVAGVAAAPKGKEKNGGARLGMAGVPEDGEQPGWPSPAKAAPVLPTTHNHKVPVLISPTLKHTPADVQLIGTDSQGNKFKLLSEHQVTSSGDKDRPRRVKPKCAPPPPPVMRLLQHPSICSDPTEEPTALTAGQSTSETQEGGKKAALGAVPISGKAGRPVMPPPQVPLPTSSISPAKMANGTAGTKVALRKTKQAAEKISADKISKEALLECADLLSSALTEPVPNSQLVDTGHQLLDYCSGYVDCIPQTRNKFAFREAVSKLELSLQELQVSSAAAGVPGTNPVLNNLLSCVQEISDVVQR
UniProt P48729, sequence (whole entry, looked up): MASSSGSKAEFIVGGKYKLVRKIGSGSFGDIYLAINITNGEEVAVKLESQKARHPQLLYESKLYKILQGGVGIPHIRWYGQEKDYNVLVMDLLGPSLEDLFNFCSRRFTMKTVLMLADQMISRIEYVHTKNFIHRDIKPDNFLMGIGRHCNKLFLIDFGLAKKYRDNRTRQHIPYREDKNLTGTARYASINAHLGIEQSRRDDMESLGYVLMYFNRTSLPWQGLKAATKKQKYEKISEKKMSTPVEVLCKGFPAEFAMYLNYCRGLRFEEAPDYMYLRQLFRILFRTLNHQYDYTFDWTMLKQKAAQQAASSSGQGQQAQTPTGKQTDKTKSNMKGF
UniProt P36507, sequence (whole entry, looked up): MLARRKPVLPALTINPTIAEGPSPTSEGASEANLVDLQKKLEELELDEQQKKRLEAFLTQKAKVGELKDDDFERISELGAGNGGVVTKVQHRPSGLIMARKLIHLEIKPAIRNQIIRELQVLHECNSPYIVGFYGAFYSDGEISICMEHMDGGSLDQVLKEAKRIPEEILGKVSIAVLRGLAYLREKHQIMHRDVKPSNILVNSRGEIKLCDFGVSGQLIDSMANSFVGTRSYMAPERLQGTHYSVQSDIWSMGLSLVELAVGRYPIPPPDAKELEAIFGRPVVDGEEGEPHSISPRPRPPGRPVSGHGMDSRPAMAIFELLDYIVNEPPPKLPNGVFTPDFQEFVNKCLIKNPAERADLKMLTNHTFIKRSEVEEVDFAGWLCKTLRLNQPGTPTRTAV
UniProt P42685, sequence (whole entry, looked up): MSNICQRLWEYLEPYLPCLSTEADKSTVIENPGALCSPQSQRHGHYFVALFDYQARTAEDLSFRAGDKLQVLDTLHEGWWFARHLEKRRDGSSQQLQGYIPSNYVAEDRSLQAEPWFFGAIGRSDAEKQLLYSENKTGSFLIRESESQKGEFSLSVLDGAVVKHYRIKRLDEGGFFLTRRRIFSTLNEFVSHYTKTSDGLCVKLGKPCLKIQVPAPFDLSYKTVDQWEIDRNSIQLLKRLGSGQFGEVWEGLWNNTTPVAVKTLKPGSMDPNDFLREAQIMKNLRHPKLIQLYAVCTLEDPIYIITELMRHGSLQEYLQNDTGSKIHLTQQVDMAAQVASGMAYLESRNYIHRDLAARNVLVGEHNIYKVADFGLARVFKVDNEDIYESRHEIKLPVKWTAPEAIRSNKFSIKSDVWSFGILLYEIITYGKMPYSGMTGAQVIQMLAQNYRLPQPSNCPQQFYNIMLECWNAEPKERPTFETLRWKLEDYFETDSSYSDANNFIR
UniProt P49841, sequence (whole entry, looked up): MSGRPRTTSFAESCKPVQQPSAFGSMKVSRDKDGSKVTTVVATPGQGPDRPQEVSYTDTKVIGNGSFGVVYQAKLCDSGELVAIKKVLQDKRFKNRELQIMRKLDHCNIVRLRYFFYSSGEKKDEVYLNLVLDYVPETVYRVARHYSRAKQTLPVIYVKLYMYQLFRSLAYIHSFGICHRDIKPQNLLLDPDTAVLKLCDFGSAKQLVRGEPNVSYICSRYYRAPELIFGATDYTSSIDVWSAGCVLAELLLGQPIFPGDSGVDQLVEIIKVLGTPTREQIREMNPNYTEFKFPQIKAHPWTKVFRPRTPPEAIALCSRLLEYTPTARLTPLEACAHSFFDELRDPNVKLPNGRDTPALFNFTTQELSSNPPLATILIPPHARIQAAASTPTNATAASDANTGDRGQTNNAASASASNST

Study 1
Structure (SMILES): C[C@H](c1ccc(F)cc1)N(Cc1cccc(C(=O)O)c1)C(=O)c1cnc2ccccc2c1
Read-out: cell-free assay
Technique: competition with immobilised ligand
Tested at: 1 µM
| target | remaining binding |
| --- | --- |
| Casein kinase I isoform alpha (CSNK1A1, Homo sapiens, UniProt P48729) | 100% |
| Tyrosine-protein kinase ABL1, phosphorylated (ABL1, Homo sapiens, UniProt P00519, M351T) | 94% |
| Ephrin type-B receptor 1 (EPHB1, Homo sapiens, UniProt P54762) | 83% |
| Homeodomain-interacting protein kinase 2 (HIPK2, Homo sapiens, UniProt Q9H2X6) | 100% |
| Ribosomal protein S6 kinase alpha-3, N-terminal kinase domain (RPS6KA3, Homo sapiens, UniProt P51812) | 100% |

Study 2
Structure (SMILES): c1ccc(Oc2ccc(Nc3c4c(nc5ccccc35)CCC4)cc2)cc1
Organism: Leishmania donovani
Strain: DD8
| test | system | conditions | inhibition |
| --- | --- | --- | --- |
| parasite viability, resazurin | promastigotes | 0.16 µM | 0% and 12% and -2% and 13% |
| parasite killing | promastigotes | 16.66 µM, 96 h | 100% |
| parasite killing | intracellular amastigotes | 20 µM, 72 h | 100% |
| parasite killing | promastigotes | 33.33 µM, 72 h | 100% |

Study 3
Organism: Sarcocystis neurona
Read-out: parasite growth
Tested at: concentration not given
| SMILES | inhibition |
| --- | --- |
| Cl.O.O=C1N(c2ccccc2)c2ccccc2C1(Cc1ccncc1)Cc1ccncc1 | -15% |
| CC(CN1c2ccccc2Sc2ccccc21)N(C)C.Cl (stereo not drawn) | -11.6% |
| Cl.O=C(O)/C=C/c1ccc(Cn2ccnc2)cc1 | -14.9% |
| Nc1nc(Cl)nc2c1ncn2[C@@H]1O[C@H](CO)[C@@H](O)[C@H]1O | -13.9% |
| CC[N+](C)(CC)CCOC(=O)C(O)(c1ccccc1)C1CCCCC1.[Br-] (stereo not drawn) | -5.2% |
| Cl.c1ccc2c(c1)CCCC2C1=NCCN1 (stereo not drawn) | -17.4% |
| COc1ccccc1N1CCN(CCCNc2cc(=O)n(C)c(=O)n2C)CC1.Cl | -15.8% |

Study 4
Species: human
Medium: microsomes or S9
Tested at: 2 µM
Time: 0.5 h
| SMILES | remaining compound [%] |
| --- | --- |
| Cc1ccc(Nc2nc3ccccc3n3nnnc23)cc1 | 5.91 |
| Cc1cc(C)n(CC(O)CON=C2c3ccccc3-c3ccccc32)n1 (stereo not drawn) | 4.93 |
| Cc1cc(C(=O)NCC2(O)CCCC2(C)C)[nH]n1 (stereo not drawn) | 91.6 |
| Cc1cc(S(=O)(=O)Nc2ccc(=O)n(C)n2)sc1C | > 100 |
| O=C(Nc1ccccc1OC1CCCC1)c1c(O)cc(=O)n2c1CCC2 | 63.3 |
| Cc1cc(Br)ccc1NC(=O)C(NS(=O)(=O)c1cccs1)c1ccccc1 (stereo not drawn) | 10.7 |
| CC(C)(C)OC(=O)COc1ccc(-c2cc3ccccc3[nH]c2=O)cc1 | 6.47 |

Study 5
Structure (SMILES): CCc1cnn2c(NCc3ccc[n+]([O-])c3)cc(N3CCCC[C@H]3CCO)nc12
Technique: trypan blue exclusion
Time: 48 h
Reference: untreated
| cell line | conditions | viability |
| --- | --- | --- |
| HH | 0.1 µM | 0.855% and 0% |
| HH | 0.5 µM | 0.951% and 0% and 1.82% |
| HH | 10 µM | 0% |
| HH | 0.05 µM | 5.6% and 2.7% and 4.54% |
| HH | 1 µM | 0% and 1.3% |
| HuT78 | 0.0001 µM | 102% |

Study 6
SMILES: Cc1cc(Nc2cc(N3CCN(C)CC3)nc(Sc3ccc(NC(=O)C4CC4)cc3)n2)[nH]n1
Read-out: enzyme activity
Mode: inhibitor
Tested at: 0.5 µM
Reference: control
| target | remaining activity [%] |
| --- | --- |
| Ribosomal protein S6 kinase alpha-2 (RPS6KA2, Homo sapiens, UniProt Q15349) | 76 |
| Mitogen-activated protein kinase 3 (MAPK3, Homo sapiens, UniProt P27361) | 96 |
| Tyrosine-protein kinase Mer (MERTK, Homo sapiens, UniProt Q12866) | 106 |
| Serine/threonine-protein kinase TAO2 (TAOK2, Homo sapiens, UniProt Q9UL54) | 18.6 |
| Wee1-like protein kinase (WEE1, Homo sapiens, UniProt P30291) | 100 |
| Tyrosine-protein kinase ABL2 (ABL2, Homo sapiens, UniProt P42684) | 5.75 |
| Dual specificity mitogen-activated protein kinase kinase 2 (MAP2K2, Homo sapiens, UniProt P36507) | 91.3 |
| Glycogen synthase kinase-3 beta (GSK3B, Homo sapiens, UniProt P49841) | 104 |
| Serine/threonine-protein kinase Nek1 (NEK1, Homo sapiens, UniProt Q96PY6) | 67.6 |
| Casein kinase I isoform gamma-3 (CSNK1G3, Homo sapiens, UniProt Q9Y6M4) | 100 |
| Serine/threonine-protein kinase Nek6 (NEK6, Homo sapiens, UniProt Q9HC98) | 94.2 |
| Serine/threonine-protein kinase ULK3 (ULK3, Homo sapiens, UniProt Q6PHR2) | 87.3 |
| Serine/threonine-protein kinase ULK2 (ULK2, Homo sapiens, UniProt Q8IYT8) | 101 |
| Mitogen-activated protein kinase kinase kinase 5 (MAP3K5, Homo sapiens, UniProt Q99683) | 102 |
| Serine/threonine-protein kinase A-Raf (ARAF, Homo sapiens, UniProt P10398) | 123 |
| Tyrosine-protein kinase FRK (FRK, Homo sapiens, UniProt P42685) | 101 |
| Activin receptor type-1B (ACVR1B, Homo sapiens, UniProt P36896) | 114 |
| Macrophage-stimulating protein receptor (MST1R, Homo sapiens, UniProt Q04912) | 83.6 |
| Casein kinase I isoform gamma-2 (CSNK1G2, Homo sapiens, UniProt P78368) | 96.2 |
| Serine/threonine-protein kinase TBK1 (TBK1, Homo sapiens, UniProt Q9UHD2) | 90.5 |
| Mitogen-activated protein kinase kinase kinase 14 (MAP3K14, Homo sapiens, UniProt Q99558) | 111 |
| Rhodopsin kinase GRK7 (GRK7, Homo sapiens, UniProt Q8WTQ7) | 95.5 |
| Tyrosine-protein kinase JAK3 (JAK3, Homo sapiens, UniProt P52333) | 91.8 |
| Fibroblast growth factor receptor 3 (FGFR3, Homo sapiens, UniProt P22607) | 70.6 |

Single results of other studies
| SMILES | target | test | system | conditions | measurement | result |
| --- | --- | --- | --- | --- | --- | --- |
| C=C(F)C(=O)N1CCN(c2nc(OC[C@@H]3CCCN3C)nc3c2CCN(c2cccc4cccc(Cl)c24)C3)C[C@@H]1CC#N | GTPase HRas (HRAS, Homo sapiens, UniProt P01112) | binding, competitor, NanoBRET | HEK293 | 9.14 nM | normalized BRET | 93.2% and 91.4% |

A few entries again (study 6):
| target | remaining activity [%] |
| --- | --- |
| Glycogen synthase kinase-3 beta (GSK3B, Homo sapiens, UniProt P49841) | 104 |
| Serine/threonine-protein kinase Nek1 (NEK1, Homo sapiens, UniProt Q96PY6) | 67.6 |
| Casein kinase I isoform gamma-3 (CSNK1G3, Homo sapiens, UniProt Q9Y6M4) | 100 |
| Serine/threonine-protein kinase Nek6 (NEK6, Homo sapiens, UniProt Q9HC98) | 94.2 |
| Serine/threonine-protein kinase ULK3 (ULK3, Homo sapiens, UniProt Q6PHR2) | 87.3 |
| Serine/threonine-protein kinase ULK2 (ULK2, Homo sapiens, UniProt Q8IYT8) | 101 |
| Mitogen-activated protein kinase kinase kinase 5 (MAP3K5, Homo sapiens, UniProt Q99683) | 102 |
